Measurements pooled from the literature.
Compare with care: the assays were run in different laboratories. ± gives the spread as reported.

With C[N+](C)(C)CCO.O=C([O-])[C@@H](O)Cc1ccccc1 the decomposition temperature was 93.7 °C (thermogravimetric analysis; 5% mass loss, nitrogen).
CCCC[C@H](NC(=O)[C@H](CC(C)C)N(C)C(=O)CNC(=O)[C@@H](NC(=O)[C@H](Cc1ccccc1)NC(=O)[C@H](CCCCN)NC(=O)[C@@H](N)CC(=O)O)C(C)C)C(N)=O has a heart rate of 0.14 ± 7.12% (anesthetized Gottingen minipig; subcutaneous, 30 µg/kg; relative to: baseline).
COc1cc(-c2nc3ccccc3s2)cc(CN2Cc3cccc(n3)CNCc3cccc(n3)C2)c1O gave a pKa4 of 10.1 (UV-vis spectrophotometric titration, refers to: HL/L- equilibrium; MeOH/water with NaCl; 50 µM, room temperature, NaCl 0.1 M, MeOH ≤20% v/v).
For CCCCN1C(=O)c2cccc3c(NCCCCN4CCOCC4)ccc(c23)C1=O, “fluorescence quantum yield” read 0.34 (water; pH 6; relative to: fluorescein/0.1 N NaOH).
COc1cc(NC(C)=O)c2c(c1O)-c1c(OC)c(OC)cc3c1C(C2)N(C)CC3 (stereo not drawn) has a terminal slope of 0.359 ± 0.158 (Wistar rat male, plasma; intravenous, 100 mg/kg).
For COc1cc(N(C)CCN(C)C)c(NC(=O)CCSCC(NC(C)=O)C(=O)O)cc1Nc1nccc(-c2cn(C3CC3)c3ccccc23)n1 (stereo not drawn), “share of radioactivity” read 2.69% (radio-HPLC; human, feces; dose not given, 96 to 240 h, sample holds 16.61% dose; relative to: sample radioactivity).
O=C1c2sc(-c3ccc(N4CCC(F)C4)nc3F)nc2CCN1c1cccnc1 (stereo not drawn) — result for “time to peak uptake”: 5.5 min (PET imaging; rhesus monkey, whole brain; intravenous bolus).
NCC(=O)N1CCC[C@H]1C(=O)N1C[C@H](O)C[C@H]1C(=O)O has a pKa3 of 7.18 (potentiometric titration; water; 40 °C, 0.15 mol/dm3 NaCl).
The dose-normalised Cmax of CC(C)(O)c1ncc([S@](N)(=O)=NC(=O)Nc2c3c(cc4c2CCC4)CCC3)s1 is reported as 112 ng/mL/mg (healthy human volunteers, plasma; oral, 100 mg single dose, fasted, spray-dried dispersion).
CC(C)Cn1c(SCC(=O)N2CCc3ccccc3C2)nc2cc(Cl)ccc2c1=O has a compound remaining of 0.1% (metabolic stability; rat, liver microsomes; 1 h).
Under “mean residue ellipticity”, CC[C@@H](C)[C@@H](NC(=O)[C@@H](CC(C)C)NC(=O)[C@@H](CCCCN)NC(=O)[C@@H](CC(C)C)NC(=O)[C@@H](CC(C)C)NC(=O)[C@H](NC(=O)[C@@H](Cc1c[nH]cn1)NC(=O)[C@@H](CC(C)C)NC(=O)[C@@H](CCCCN)NC(=O)[C@H](NC(=O)[C@@H](CCCCN)NC(=O)[C@@H](CCCCN)NC(=O)[C@@H](CC(C)C)NC(=O)[C@@H](CO)NC(=O)[C@@H](CCCCN)NC(=O)[C@@H](Cc1ccccc1)NC(=O)[C@H](NC(=O)[C@@H](CCCCN)NC(=O)[C@@H](CC(C)C)NC(=O)[C@@H](Cc1ccccc1)NC(=O)[C@@H](CO)NC(=O)[C@@H](CCCCN)NC(=O)[C@@H](Cc1c[nH]c2ccccc12)NC(=O)[C@@H](CCCCN)NC(C)=O)[C@H](C)O)[C@H](C)O)[C@H](C)O)C(=O)N[C@H](CO)C(=O)N[C@H](CO)C(N)=O is recorded as 35500 deg cm²/dmol (circular dichroism; buffer with 50% TFE; 5 °C, at 222 nm).
For C=CC(=O)Nc1cc(Nc2nccc(-c3cn(C4CC4)c4ccccc34)n2)c(OC)cc1NC, “share of radioactivity” read 1.7% (radio-HPLC, co-eluting peaks pooled; human male, urine; oral, 110 mg, 0 to 96 h, sample holds 4.16% dose; relative to: sample radioactivity).
The retained fraction of N=C(N)NCCC[C@H](NC(=O)[C@H](CCCNC(=N)N)NC(=O)[C@H](CCCNC(=N)N)NC(=O)[C@H](CCCNC(=N)N)NC(=O)[C@H](CCCNC(=N)N)NC(=O)[C@H](CCCNC(=N)N)NC(=O)[C@H](CCCNC(=N)N)NC(=O)[C@H](CCCNC(=N)N)NC(=O)[C@H](CCCNC(=N)N)NC(=O)[C@H](CCCNC(=N)N)NC(=O)[C@H](CCCNC(=N)N)NC(=O)[C@H](CCCNC(=N)N)NC(=O)[C@H](CCCNC(=N)N)NC(=O)[C@H](CCCNC(=N)N)NC(=O)[C@H](CCCNC(=N)N)NC(=O)[C@H](CCCNC(=N)N)NC(=O)[C@H](CCCNC(=N)N)NC(=O)[C@H](CCCNC(=N)N)NC(=O)[C@H](CCCNC(=N)N)NC(=O)[C@H](CCCNC(=N)N)NC(=O)c1ccc2c(c1)C(=O)OC21c2ccc(O)cc2Oc2cc(O)ccc21)C(=O)O is reported as roughly 99% (bovine cartilage explants; 30 µM, 24 h, together with: 1 x PBS).
N=C(N)NCCC[C@@H]1NC(=O)[C@H](Cc2c[nH]c3ccccc23)NC(=O)[C@@H](CC2CCCCC2)NC(=O)[C@@H]2CCCN2C(=O)[C@@H](NC(=O)CCc2ccccc2)CCCNC1=O gave a K21 of 2.09 h⁻¹ (two-compartment model; C57BL/6J mouse, plasma plasma; oral, 1 mg/kg single dose).
CCOc1c(C(C)(C)O)sc2cnc(Nc3ccc(N4CCC(N5CC6(COC6)C5)CC4)cc3OC)nc12 gave a half-life of 7.4 h (male C57BL/6 mouse, plasma; oral, 10 mg/kg).
For CC/C=C\C/C=C\C/C=C\C/C=C\C/C=C\CCCCOC(CC)C(=O)O (stereo not drawn), “cumulative excretion of radioactivity” read greater than 95% (radioactivity, 14C-labelled; Wistar rat, male, urine and feces; oral, 100 mg/kg, 48 h; relative to: dose).
For COc1ccc2cc(-c3ccc(-c4ccc(C)cn4)nc3)oc2c1, “fluorescence quantum yield” read 0.79 (MeOH; together with: quinine bisulfate reference).
Under “apparent clearance (CL/F)”, CCc1cc(Nc2nc(-c3ccc(-n4cnc(C)c4)c(F)c3)cs2)c(C)cc1C is recorded as 52700 mL/h (human, plasma; oral, 100 mg, day 1, multiple dose, geometric mean).
COc1ccc(Nc2nc(Nc3ccc(OCCOCC[18F])cc3)ncc2Br)cc1 has an uptake ratio of 1.64 (ICR mice, S180 tumour; intravenous, 370 kBq, 15 min; relative to: tumour over bone).
Cn1c(=O)oc2ccc(-c3ccc(CC(C#N)NC(=O)C4CNCCCO4)c(F)c3)cc21 (stereo not drawn) — result for “urine WBC positive incidence”: 0% (human; oral, 20 mg once daily, TEAE, multiple ascending dose).
With Cc1ccc(OCC(=O)O)cc1 the t1/2 was 6.07 h (beagle dog, male, plasma; oral gavage, 100 mg/kg of parent drug).
CC[C@H](C)[C@@H]1NC(=O)[C@H](CCCNC(=N)N)NC(=O)[C@H](CC(=O)O)NC(=O)[C@H](CC(C)C)NC(=O)[C@H](CCCCN)NC(=O)[C@H](CC(C)C)NC(=O)CNC(=O)[C@H](Cc2ccccc2)NC(=O)[C@@H](NC(=O)CNC(=O)[C@H](CCCCN)NC(=O)[C@H](CO)NC(=O)[C@H](CC(C)C)NC(=O)CNC(=O)[C@H](CCCCN)NC(=O)[C@H](CCCCN)NC(=O)[C@H](CC(N)=O)NC(=O)[C@H](C)NC(=O)CNC(=O)[C@H](CCCCN)NC(=O)[C@H](Cc2ccc(O)cc2)NC(=O)[C@H](CCCCN)NC(=O)[C@H](CCCNC(=N)N)NC(=O)[C@H](C)NC(=O)[C@H](CC(N)=O)NC(=O)[C@@H]2CCCN2C(=O)[C@H](Cc2c[nH]cn2)NC(=O)[C@H](CCC(=O)O)NC(=O)[C@H](CCC(N)=O)NC(=O)[C@@H](N)CC(C)C)CSSC[C@@H](C(=O)O)NC(=O)CNC(=O)[C@H](CC(C)C)NC(=O)CNC(=O)[C@H](CO)NC(=O)[C@H](CCSC)NC(=O)[C@H](CO)NC(=O)CNC1=O: “AUC extrapolated percentage” 10.5% (healthy adult men, plasma; subcutaneous, 150 µg CNP/kg, single dose, together with: TransCon CNP prodrug).
O=C([O-])CN1CCN(CC(=O)[O-])CCN(CC(=O)NCCc2ccc3c(c2)C2C=CCC2C(c2cc4c(cc2Br)OCO4)N3)CCN(CC(=O)[O-])CC1.[111In+3] (stereo not drawn): “tumour to tissue ratio” 2.08 (mice with Hec50 tumour xenograft; 4 h; relative to: tumour over blood).
For CCCC(CCC(=O)O)NC(=O)c1ccc(O)c(OC)c1 (stereo not drawn), the peak area was 172000 cps (LC-MS extracted ion chromatogram; Sprague-Dawley rat, male and female, pooled plasma; oral, 200 mg/kg, 1 h).
For COc1c2c(cc3oc(COC4OC(CO)C(O)C(O)C4O)cc(=O)c13)OC(C(C)(C)O)C2 (stereo not drawn), the transformation rate was 1.55% (simulated gastric fluid with pepsin; 2 h, pH 1.2, 37 °C).
For CCN(CC)c1ccc2c(-c3ccc(S(=O)(=O)NCCNC(=O)CN4CCN(CC(=O)[O-])CCN(CC(=O)O)CCN(CC(=O)[O-])CC4)cc3S(=O)(=O)[O-])c3ccc(=[N+](CC)CC)cc-3oc2c1.[64Cu+2], the tumour uptake was 4.75 ± 0.56 %ID/g (microPET imaging; athymic nude mice, U-87 MG glioma xenograft; 250 µCi, 24 h post-injection).
O=C(CCc1ccc(CNC(C(=O)O)C2CCCCC2)cn1)NO (stereo not drawn) has an AUC(0-t) of 37.2 ng·h/mL (healthy male humans, plasma; oral, 10 mg, single dose, geometric mean).
The half-life of CC1=C(/C=C/C(=O)N2CCN(C(N)=O)CC2)C(C)(C)CCC1 is reported as 4.24 h (male mouse, plasma; oral, 120 mg/kg, single dose).
With CC(C)C[C@@H](NC(=O)[C@H](NC(=O)[C@H]1CCCN1)[C@H](C)O)C(=O)N[C@H](Cc1c[nH]cn1)C(=O)N[C@@H](C(=O)N[C@H](Cc1c[nH]cn1)C(=O)N[C@H](CC(N)=O)C(=O)N[C@H](CCCNC(=N)N)C(=O)N[C@H](CCCNC(=N)N)C(=O)N[C@H](CCCNC(=N)N)C(=O)N[C@H](CCCNC(=N)N)C(=O)N[C@H](CCCNC(=N)N)C(N)=O)[C@H](C)O the beta half-life was 0.56 h (Beagle dog, plasma; oral, 20 mg/kg single dose, from mean plasma levels).
For COCCOCCOCCOCCOCCOCCOCCOCCC(=O)NCCCc1cc2cc3nc(cc4[nH]c(cc5nc(c(OC)c1[nH]2)C(=O)C5(C)C)cc4CCc1ccc(C(=O)O)cc1)CC3(C)C, “Qy emission maximum” read 684 nm (DMF; room temperature).
CNC(=O)N[C@]1(C)CCC[C@@]2(C)C3CC[C@@]4(C)C[C@]3(CCC21)CC4=O (single isomer, unassigned) gave a measured concentration of 1.46 ± 0.17 ng/mL (rat plasma; 1.5 ng/mL, 101 d, -80 °C, long-term storage stability).
With COC(=O)c1ccc2c(c1)NC(=O)/C2=C(\Nc1ccc2c(c1)CCN2C(=O)CN1CCOCC1)c1ccccc1 the AUC(0-t) was 2580 ng·h/mL (cynomolgus monkey, plasma; oral, 5 mg/kg).
C=CC(=O)OCCCCCCOC(C)(C)O[C@@H](C(=O)O[C@H]1C[C@@]2(O)[C@@H](OC(=O)c3ccccc3)[C@@H]3[C@]4(OC(C)=O)CO[C@@H]4C[C@H](O)[C@@]3(C)C(=O)[C@H](OC(C)=O)C(=C1C)C2(C)C)[C@@H](NC(=O)c1ccccc1)c1ccccc1 has a hydrolysis half-life of 0.955 h (phosphate buffer, 40% acetonitrile; 50 µM, pH 5.0, 37 °C).
